Experimental data gathered from unrelated publications.
Every numbered part comes from another study and shows a few of its results, in no order. Substitutions count along the parent as printed.

Study 1 — method: DHFR PCA, deep sequencing; sample: yeast; added: (+)-ABA 0 µM; reference: wild-type fitted maximum; reading: higher = stronger binding
Target: ABI1, truncated, D143A, DHFR fusion (Arabidopsis thaliana)
Notes: methotrexate growth selection, single substitutions
Starting sequence: PYL1, truncated, DHFR fusion (Arabidopsis thaliana); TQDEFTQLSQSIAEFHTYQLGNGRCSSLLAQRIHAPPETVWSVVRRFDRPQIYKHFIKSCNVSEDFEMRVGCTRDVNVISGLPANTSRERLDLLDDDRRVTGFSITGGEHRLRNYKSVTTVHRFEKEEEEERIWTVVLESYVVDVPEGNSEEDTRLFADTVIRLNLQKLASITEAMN; partner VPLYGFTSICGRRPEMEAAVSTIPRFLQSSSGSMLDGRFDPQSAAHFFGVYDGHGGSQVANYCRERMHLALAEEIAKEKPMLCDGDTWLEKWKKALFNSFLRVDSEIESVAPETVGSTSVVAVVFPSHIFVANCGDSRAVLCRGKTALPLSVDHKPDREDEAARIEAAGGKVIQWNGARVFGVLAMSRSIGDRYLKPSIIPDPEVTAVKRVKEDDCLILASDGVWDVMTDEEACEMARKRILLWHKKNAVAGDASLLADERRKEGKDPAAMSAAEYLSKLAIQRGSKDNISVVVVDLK
`S117F` — result for “relative binding score”: -0.872%.
Under “relative binding score”, `T135D` is recorded as -12%.
For `D153P`, “relative binding score” read -11.3%.
`V43E`: “relative binding score” 2.1%.
Under “relative binding score”, `R99Y` is recorded as 62.6%.
For `L28H`, “relative binding score” read -8.28%.
`R24L`: “relative binding score” 4.83%.
Under “relative binding score”, `M176W` is recorded as 3.8%.
For `E131V`, “relative binding score” read 31.7%.
`L93G` — result for “relative binding score”: -4.19%.
For `R32F`, “relative binding score” read 16.4%.
`E4A` — result for “relative binding score”: 8.03%.
Under “relative binding score”, `E67R` is recorded as 9.21%.
`N22K`: “relative binding score” 48.3%.
Under “relative binding score”, `S9N` is recorded as 14.6%.
For `D159A`, “relative binding score” read -6.11%.
`N149T`: “relative binding score” 50.3%.
Under “relative binding score”, `N22A` is recorded as 41.7%.

Study 2 — method: RNA Bind-n-Seq; form: RNA; sample: in vitro; tested at: 100 nM; reference: input RNA pool; reading: higher = stronger binding
Target: RING finger protein unkempt homolog, zinc fingers 1-6, SBP tag (UNK, Homo sapiens, UniProt Q9C0B0, residues 30-357)
Sequence of UniProt Q9C0B0 (30-357, looked up): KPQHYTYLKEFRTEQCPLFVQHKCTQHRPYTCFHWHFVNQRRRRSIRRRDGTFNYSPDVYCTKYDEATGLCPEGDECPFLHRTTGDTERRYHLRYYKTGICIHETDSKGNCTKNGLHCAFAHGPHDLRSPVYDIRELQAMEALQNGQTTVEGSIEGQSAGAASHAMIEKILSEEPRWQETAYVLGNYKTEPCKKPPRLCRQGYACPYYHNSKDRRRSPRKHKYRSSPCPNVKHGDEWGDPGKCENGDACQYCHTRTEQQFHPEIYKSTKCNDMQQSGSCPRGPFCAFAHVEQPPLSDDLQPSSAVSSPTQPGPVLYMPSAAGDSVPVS
Notes: RNA with constant flanks, vertebrate orthologous sites, ends assumed
`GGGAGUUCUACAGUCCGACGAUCUGAGCGUUGGAAGACCAGCAUAUGAGGUUGUGGUCAAAAAGUAGGAGCAGCUGGGGAAAGAAGUUACAAAUAUCAAUCGCCAUGUGGCUAAAAGGUGGAGACGAAGAUCAUCGAAACUCACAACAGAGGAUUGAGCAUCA` gave a bound/input enrichment of 0.498 ratio.
The bound/input enrichment of `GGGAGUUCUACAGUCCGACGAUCGGAGAUACUGAAUAGUAUUAACCAUUUUCGUCUUCCUUCACCUUUUACCCUUCUACCUCUUAGUCUACUUUUUUAAAUUUCAGACUUCAUUGCUCUUUGAAUUGAUAUUUCAGAUUUUCACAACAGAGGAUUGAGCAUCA` is reported as 1.02 ratio.
With `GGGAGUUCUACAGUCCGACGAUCUCCCCAUUACCCCUAAAGUAGAACAUUUUUUAAAUUGUGUUGCCACCACUUUUAAAAAUUUAGCAAUAUUAGAAUAGGAUACCAGUGAAGUAAGAAAUUUUGCUUGUUGUUUUGCAAACCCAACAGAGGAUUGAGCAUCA` the bound/input enrichment was 5.04 ratio.
For `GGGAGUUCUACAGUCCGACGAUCUCUAUACAGUUUCAAAGAUACUUCCCUAUGGGAUGCUUUGGCACUAAAUCUAUUUAAUUGCAGUUACAUAUGUAUUGUUUAUAACUAGCAGUAUGCAUUCAAAGGGGGCUCACUUGGUAUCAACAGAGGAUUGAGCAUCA`, the bound/input enrichment was 0.908 ratio.
For `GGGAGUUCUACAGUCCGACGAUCCCGAAAGGCCAAAUUCCCUCCUCCCUUCUACUGCUUCUACCAACUGGAAGCACAGAAAACUAGAAUUACAUUUAUUUUGUUUUUUAAAAUAUAUGUUGAUUUCGUGUAACAUUCAAUAGGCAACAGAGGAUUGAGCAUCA`, the bound/input enrichment was 0.728 ratio.
The bound/input enrichment of `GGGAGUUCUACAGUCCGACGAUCUCCCAGCACCUUGGUGAAAAGUGUGGAUUGGUUGCUUGUAUUUUCUUUAUUCUUUUUAAUUAGUUUUAUUAUGUAUGCUACUGUUCGGACUGAAAGUAUUCGAUGGCUCAUUCCAGGACACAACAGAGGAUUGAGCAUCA` is reported as 4.53 ratio.
`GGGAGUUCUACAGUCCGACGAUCUAAUGUGUUUUUAUUUACUGAAGAUCGUUUUGUGCUAAGAAUUGUGUUAGAUUUAAAAAUAAGAGGAUUAGUUCCUCUUUGUUGUGUUGAUUUCAUUGUUGAAAAUAAAUAGAACUUUGUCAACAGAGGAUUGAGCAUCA` has a bound/input enrichment of 0.667 ratio.
For `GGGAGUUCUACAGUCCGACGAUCGCACAUGCCGCUAUCACCAAAAGCAAACUACCACUUCUCAAAUUUCAUUCAGAGCUGUUUUCGUGUUUCCUAUUCCCCACCCUUUCCACUACUUUCAAUGAUCAAACAUCCUAAGUUCUCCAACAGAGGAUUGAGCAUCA`, the bound/input enrichment was 1.4 ratio.
The bound/input enrichment of `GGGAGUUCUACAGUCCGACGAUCUUACAGUCAUUGAUGGACUCUAUUUUUUUAUUAUUACUUGGACCUUGGUCGUUUUUAUACUAGCAAAAUGUCUUGUUUUAAUUUGUGUUUUUUGGGGGAGGGAGUGAAACUUGCUGAUUCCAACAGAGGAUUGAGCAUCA` is reported as 2.66 ratio.
`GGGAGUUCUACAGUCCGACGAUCCUCUCUUAGCGAUAGUAUUCCAUCUGUAGCAGAUUCUCACUCGAGUCAUUUUUCUGAGUUUAGUUGCUCAGAUAUGGAGAGUAUGAAAACUUCCUGUAGCCAUGGUUCCAACGACUAUCACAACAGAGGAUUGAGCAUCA` has a bound/input enrichment of 0.41 ratio.
`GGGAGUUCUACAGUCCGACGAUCAAAUUCCCCCAUUGUCACUGAGAACCACCAAAUCUGACUUUUACAUUUGGUCUCAGAAUUUAGGUUCCUGCCCUGUUUUGUUUUUUUUGUUUUUUUGUUUUUUGUUUUUUUUUUUAAACACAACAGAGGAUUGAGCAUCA` gave a bound/input enrichment of 1.81 ratio.

Study 3 — method: RNA Bind-n-Seq; form: RNA; sample: in vitro; tested at: 365 nM; reference: no-protein control; reading: higher = stronger binding
Target: RNA binding protein fox-1 homolog 2, RRM domain, GST-SBP tag (RBFOX2, Homo sapiens, UniProt O43251-10, residues 100-194)
Notes: natural RNA segment, single round, ends assumed
Residues (chain): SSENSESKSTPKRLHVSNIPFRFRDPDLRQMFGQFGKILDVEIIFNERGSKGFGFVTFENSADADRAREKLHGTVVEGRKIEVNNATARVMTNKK
Under “RBNS enrichment (R)”, `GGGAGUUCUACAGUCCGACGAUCUCUAACUCUUCCUCUACAUCUUACUGUUCUGCCCGGGAUUCGUAUUAUAAUGACAGAAGAAAUGUUGUUUAGACUAUUAUUUUUGUUCGACUCUAAAAGAUUUGCCAAAUUGGAAUUCUCGGGUGCCAA` is recorded as 0.389.
Under “RBNS enrichment (R)”, `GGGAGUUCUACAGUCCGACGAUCAAGUCAGACAUGGCUCUAAAGAGCUUCCUAAGAGACUUCCCGAGAGAGAGACAAAAGUGUUUGUUUGUUUUGUUUCCAGGAGCUUGUCAAAUAAACCAAUGAAAAAGCUUUGGAAUUCUCGGGUGCCAA` is recorded as 0.505.
`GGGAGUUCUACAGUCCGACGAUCACUUCCAAGCGCAGGGACGCCGGCCUCCAGCUGGUGUGUGCUAAGGCUCCGUCCUGACUGCCCUGUGCCCUGGAAAAGCAGCAAUAGCAUCCGCCCCUUAGAGCCCUCUGUGGAAUUCUCGGGUGCCAA` — result for “RBNS enrichment (R)”: 0.414.
`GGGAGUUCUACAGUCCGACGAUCUGGAAUUUGCUGUGCAGAGCCAUAAGCCUCCCAUUUUGUUAGCGUCAGCUAGGCCAAUAGGAACAGACCGGGACCUUGUCUCACACUGAUGAUACCUCACAUGUUGACCGUGGAAUUCUCGGGUGCCAA`: “RBNS enrichment (R)” 0.285.
Under “RBNS enrichment (R)”, `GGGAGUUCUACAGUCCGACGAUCUGUGUGUAUGGGUGCUGUCAGUCUGCUUCAGUCUAGCCAGUCCAGUAUCUCCAAGAUGAGACUCAACAGGACUUGGAUUUUGAGAAGCCCAGGCUCUAAAUAAUAGCCUCUGGAAUUCUCGGGUGCCAA` is recorded as 0.34.
Under “RBNS enrichment (R)”, `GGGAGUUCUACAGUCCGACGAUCCACUUUUCAUAUUCUUAAAAUAAUCUUCACUUCUGUUAAGAAGAACAUGUUGGUGGGUAAUUAUGCGAAUGUUUCCCUGUCCCUGAUUUCUCGAUUAGGCGUAUGGGUUUUGGAAUUCUCGGGUGCCAA` is recorded as 0.303.
Under “RBNS enrichment (R)”, `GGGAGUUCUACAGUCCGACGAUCAGACUUACAUGCCAUCUUCUGAGUAAAGAGUUUGAGGUUUUAAUUUAAAGGCAAUGUACAGCUAUACUUUUUUAUAUGCUCUUCCAGUCAGUUAAAUUAUGGCCUACACUUGGAAUUCUCGGGUGCCAA` is recorded as 0.299.
`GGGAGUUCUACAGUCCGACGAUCAAAAAUAAUAAAUGGGUCCAGUCAGCCUGUAAUCGGUGCAAGCCAAGAACUCUUAACUGGAAGACGUUGUACUGUUGUGUAGAGCCUGAACCCAAACCCUGCGGUACCCAUGGAAUUCUCGGGUGCCAA` — result for “RBNS enrichment (R)”: 0.447.
`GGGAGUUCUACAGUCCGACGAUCCUUUUCUUUCCAGUGUGAUUACACGUGCAUUUCCAGGUGCUGAUUUGCAGCUCUCUGUUACCUUAAUCUACUUCAAAUGUAUUUUUUUUUGUAAUCAUUCUCUAAUCCCAUGGAAUUCUCGGGUGCCAA` — result for “RBNS enrichment (R)”: 0.7.
For `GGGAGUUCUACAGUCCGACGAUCCUGGUGUCCCCCCAGGCUACCUGCUCAGGAACCCCUUCUGUUCUCUGAGAAGUCAAGAGAGGACAUUGGCUCACGCACUGUGAGAUUUUGUUUUUAUACUUGGAAGUGGUUGGAAUUCUCGGGUGCCAA`, “RBNS enrichment (R)” read 0.468.
For `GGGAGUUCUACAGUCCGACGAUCGCUGGGACCCUCGCCCACUCCACGCAGGACCCGGGUCUGCGCACCUGCCGAGCGGCUGCUGGAGUCUGGAGCCAUCGCAUUGCGGGUGUAGCAGCGCAUCAGGCUUGAGAUGGAAUUCUCGGGUGCCAA`, “RBNS enrichment (R)” read 0.471.
`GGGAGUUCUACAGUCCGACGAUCCUUGUACCGAAGCCUCAAGCUGGAACACUAUGACCACGAUGAUGUCAGGCCGGGCGGCCAGCCUUGCACUACUGACCACGAUGAUGCCAGGCUGGGCGGCCAGCCUUGCAUGGAAUUCUCGGGUGCCAA` — result for “RBNS enrichment (R)”: 0.183.

Study 4 — method: protein binding microarray; form: double-stranded DNA, one strand shown; sample: in vitro; tested at: not given; reference: not given; reading: higher = stronger binding
Target: Histone acetyltransferase KAT6A, winged helix 2, GST fusion (KAT6A, Homo sapiens, UniProt Q92794, residues 85-181)
Notes: 8-mer, flanks averaged, mean of 2 arrays, mostly near background
Construct (chain): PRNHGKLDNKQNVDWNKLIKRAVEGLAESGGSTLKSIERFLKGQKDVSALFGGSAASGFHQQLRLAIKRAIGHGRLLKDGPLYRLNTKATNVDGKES
`CCATAAAG` has an E-score of 0.00687.
With `AGAGACTA` the E-score was -0.119.
The E-score of `GTGGAAAA` is reported as -0.0165.
`AACGAAAC` has an E-score of 0.0103.
`ATTTTCTC` has an E-score of 0.0656.
`CCGCAATA` has an E-score of 0.00551.
`GCATGAGA` has an E-score of -0.000665.
With `TCCCGGCA` the E-score was 0.0998.
`CGCCATGA` gave an E-score of -0.0505.
For `ATATTGAA`, the E-score was 0.00775.
The E-score of `TAATAGGA` is reported as -0.0664.
The E-score of `ACTGAGAC` is reported as 0.0305.
With `AAGCGCCT` the E-score was -0.0592.
`AAAGAATC` has an E-score of -0.0584.
`CTTCCAAA` has an E-score of 0.0968.
For `AAGCCATG`, the E-score was -0.056.
`GAGTCTCC` gave an E-score of -0.0202.
The E-score of `CTTAAAGA` is reported as 0.014.
With `ACGACCAC` the E-score was -0.119.
`GAGCGTGA` gave an E-score of -0.143.
With `AAGTGCAA` the E-score was -0.136.
With `GACCTCAA` the E-score was 0.00743.
`AGGGTATG` gave an E-score of 0.0457.
The E-score of `ATCTGTTC` is reported as -0.137.
`CGGTGTCC` gave an E-score of 0.189.

A few entries again (study 4):
`AAAGAATC` has an E-score of -0.0584.
The E-score of `GTGGAAAA` is reported as -0.0165.
The E-score of `CTTAAAGA` is reported as 0.014.
With `ACGACCAC` the E-score was -0.119.
